Assay results collected from several papers.
Each numbered part is a random draw from the data of one study; scales do not carry over between parts.

Set 1 — read-out: enzyme activity; action: inhibitor; tested at: 10 µM; endpoint: inhibition
Target: Calcium/calmodulin-dependent protein kinase type II subunit alpha (CAMK2A, Homo sapiens, UniProt Q9UQM7)
Sequence of UniProt Q9UQM7 (whole entry, looked up): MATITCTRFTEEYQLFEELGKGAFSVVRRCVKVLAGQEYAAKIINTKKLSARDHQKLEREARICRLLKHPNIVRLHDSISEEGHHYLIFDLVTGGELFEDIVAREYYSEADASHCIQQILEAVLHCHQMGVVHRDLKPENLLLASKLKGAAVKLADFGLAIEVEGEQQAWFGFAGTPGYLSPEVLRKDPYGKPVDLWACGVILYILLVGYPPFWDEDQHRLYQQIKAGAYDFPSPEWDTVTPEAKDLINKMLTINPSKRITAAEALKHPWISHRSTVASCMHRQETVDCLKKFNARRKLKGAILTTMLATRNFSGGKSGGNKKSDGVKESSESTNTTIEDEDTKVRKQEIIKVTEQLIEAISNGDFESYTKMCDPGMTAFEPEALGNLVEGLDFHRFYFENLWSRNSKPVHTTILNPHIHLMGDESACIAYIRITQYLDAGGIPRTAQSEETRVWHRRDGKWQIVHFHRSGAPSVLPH
COc1ccc2c3c1O[C@H]1C[C@@H](O)C=C[C@@]31CCNC2: 6%
CN1[C@@H](CC(=O)c2ccccc2)CCC[C@H]1CC(=O)c1ccccc1: -11%
Oc1c(Br)cccc1Br: 18%
C=C1C[C@@H]2[C@H](CC[C@]3(C)C(=O)CC[C@@H]23)[C@@]2(C)C=CC(=O)C=C12: -6%
N#Cc1cn([C@@H]2O[C@H](CO)[C@@H](O)[C@H]2O)c2ncnc(N)c12: -22%

Set 2 — read-out: ligand displacement; tested at: 10 µM; endpoint: inhibition
Target: 5-hydroxytryptamine receptor 2A (HTR2A, Homo sapiens, UniProt P28223)
Sequence of UniProt P28223 (whole entry, looked up): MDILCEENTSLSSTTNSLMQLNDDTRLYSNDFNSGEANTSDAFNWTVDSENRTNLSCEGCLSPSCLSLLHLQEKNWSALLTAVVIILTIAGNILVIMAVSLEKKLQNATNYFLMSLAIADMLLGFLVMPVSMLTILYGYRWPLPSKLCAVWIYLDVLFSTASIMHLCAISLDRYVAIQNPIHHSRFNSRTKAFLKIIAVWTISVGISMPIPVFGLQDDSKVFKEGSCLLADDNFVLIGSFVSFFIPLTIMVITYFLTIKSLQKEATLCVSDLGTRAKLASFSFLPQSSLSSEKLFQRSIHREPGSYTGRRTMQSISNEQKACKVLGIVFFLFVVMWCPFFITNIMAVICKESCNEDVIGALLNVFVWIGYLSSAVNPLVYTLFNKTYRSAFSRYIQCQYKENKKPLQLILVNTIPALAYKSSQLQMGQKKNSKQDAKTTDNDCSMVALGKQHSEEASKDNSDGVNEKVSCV
N#CC1(c2ccccn2)CCN(Cc2cc(C(=O)N3CCCC3)c(=O)n3ccccc23)CC1: -15.7%
CN1CCN(C(=O)C(C)(C)c2ccc(C(=O)Nc3cn4cc(-c5cc(C(C)(C)C)cc(C(C)(C)C)c5)ccc4n3)cc2)CC1: 92.3%
COCCOc1nc(-c2ccc(Cl)nc2)nc2c1CN(C(=O)c1ncn3ccccc13)CC2: -1.4%
Cc1cc2c(-c3ccco3)cnc(N[C@H]3CCN(C)C[C@@H]3C(=O)NC3CCCCC3)c2[nH]c1=O: 2.71%
Cc1noc([C@H]2C[C@@H](c3ccc(C(F)(F)F)cc3)CN(C(=O)N3CCS(=O)(=O)C3)C2)n1: -2.96%
COCc1nc2cnc3cc(-c4c(C)noc4C)c(OC[C@H]4CCNC4)cc3c2n1[C@H](C)c1ccccc1: -5.06%
C[C@H](c1ccc(F)cc1)N(Cc1ccc(Cl)c(C(=O)O)c1)C(=O)c1cnc2ccccc2c1: -2.34%
COc1cccc(NC(=O)c2nc3scc(CN(C)Cc4ccccc4)c3c(=O)[nH]2)c1: 14.9%
Cc1c(NC(=O)c2cc(C(N)=O)nc3cc(F)ccc23)c(C(F)(F)F)nn1Cc1ccc(C#N)cc1: 14.3%
C[C@@H](c1cccc(C#N)c1)n1cc(Cl)cc(C(N)=O)c1=N: 5.24%
Nc1nc(NCc2ccccc2)nc(-c2ccccc2CO)n1: 2.78%
CC(=O)N1CCC(c2ccc(C(=O)NC3=NCCN3)cc2C(F)(F)F)CC1: -11%
NS(=O)(=O)c1cc(NC(=O)Cc2ccccc2)ccc1Oc1cccc(Cl)c1: -2.5%
CN1CCN(c2ccnc(NCCc3ccccc3)n2)CC1: 72.9%
Nc1cnc(N2CCc3cc(S(=O)(=O)Nc4c(F)cc(Cl)cc4F)cc(N4CCCC4=O)c32)nc1: -2.82%

Set 3 — action: agonist; endpoint: Emax
Target: Beta-1 adrenergic receptor (ADRB1, Homo sapiens, UniProt P08588)
Sequence of UniProt P08588 (whole entry, looked up): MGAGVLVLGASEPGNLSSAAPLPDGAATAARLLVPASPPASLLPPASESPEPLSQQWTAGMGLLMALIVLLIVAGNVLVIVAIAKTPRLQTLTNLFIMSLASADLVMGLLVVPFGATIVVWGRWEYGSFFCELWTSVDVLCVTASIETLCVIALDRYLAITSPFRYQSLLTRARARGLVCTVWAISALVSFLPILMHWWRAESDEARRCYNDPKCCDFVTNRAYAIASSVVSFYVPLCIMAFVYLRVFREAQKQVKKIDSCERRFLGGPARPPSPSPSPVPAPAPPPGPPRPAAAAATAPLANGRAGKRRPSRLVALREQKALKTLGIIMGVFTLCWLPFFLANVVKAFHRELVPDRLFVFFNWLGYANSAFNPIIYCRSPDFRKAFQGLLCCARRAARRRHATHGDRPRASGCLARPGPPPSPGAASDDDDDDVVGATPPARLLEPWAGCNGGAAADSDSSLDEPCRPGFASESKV
CCCNC(C)Cc1ccc2c(c1)OCO2 (stereo not drawn): 70.8%
CC(C)(C)NCC(O)c1cc(Cl)c(N)c(Cl)c1 (stereo not drawn): 85.7%
CN(C)CCc1ccc(O)cc1: 61.5%
FC(F)(F)c1cccc(C2=CCN(CCc3ccc4ccccc4c3)CC2)c1: 45.4%
CC(C)(C)NC[C@H](O)c1ccc(O)cc1Cl: 87%
CN1C[C@H](C(=O)N[C@]2(C)O[C@@]3(O)[C@@H]4CCCN4C(=O)[C@H](Cc4ccccc4)N3C2=O)C[C@@H]2c3cccc4[nH]cc(c34)C[C@H]21: 64.8%

Set 4 — cell line: mouse MPNST tumor cells; technique: high-content immunofluorescence imaging; item: nuclear SOX9; tested at: 10 µM; time: 12 h; setting: mean of 2 replicates; reference: DMSO control; direction: higher = more nuclear SOX9; endpoint: nuclear SOX9 intensity
CCCCCOc1c(OC)ccc2cc(C(=O)NCc3ccc4c(c3)OCO4)c(=O)[nH]c12: 88.3 % of DMSO
C[C@H](N)[C@H](O)c1ccc(O)c(O)c1: 89.5 % of DMSO
C[N+](C)(C)CCCCCCCCCC[N+](C)(C)C: 86.1 % of DMSO
CC(C)(O)C(=O)Nc1ccc([N+](=O)[O-])c(C(F)(F)F)c1: 105 % of DMSO

Some of these lines once more (set 4):
CCCCCOc1c(OC)ccc2cc(C(=O)NCc3ccc4c(c3)OCO4)c(=O)[nH]c12: 88.3 % of DMSO
C[C@H](N)[C@H](O)c1ccc(O)c(O)c1: 89.5 % of DMSO
